Measured values pooled from the literature.
Parts stem from different laboratories: compare values within a part only.
Sequence of UniProt P41145 (whole entry, looked up): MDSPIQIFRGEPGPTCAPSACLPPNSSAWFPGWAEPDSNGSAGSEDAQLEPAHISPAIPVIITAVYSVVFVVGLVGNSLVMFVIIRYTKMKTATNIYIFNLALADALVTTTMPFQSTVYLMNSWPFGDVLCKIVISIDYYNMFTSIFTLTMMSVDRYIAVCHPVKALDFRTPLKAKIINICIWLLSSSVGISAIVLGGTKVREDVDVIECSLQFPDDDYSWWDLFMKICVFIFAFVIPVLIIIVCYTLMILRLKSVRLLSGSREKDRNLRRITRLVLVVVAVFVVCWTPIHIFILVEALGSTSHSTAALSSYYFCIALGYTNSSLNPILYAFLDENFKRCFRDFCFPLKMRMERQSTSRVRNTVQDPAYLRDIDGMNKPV
Sequence of UniProt P28223 (whole entry, looked up): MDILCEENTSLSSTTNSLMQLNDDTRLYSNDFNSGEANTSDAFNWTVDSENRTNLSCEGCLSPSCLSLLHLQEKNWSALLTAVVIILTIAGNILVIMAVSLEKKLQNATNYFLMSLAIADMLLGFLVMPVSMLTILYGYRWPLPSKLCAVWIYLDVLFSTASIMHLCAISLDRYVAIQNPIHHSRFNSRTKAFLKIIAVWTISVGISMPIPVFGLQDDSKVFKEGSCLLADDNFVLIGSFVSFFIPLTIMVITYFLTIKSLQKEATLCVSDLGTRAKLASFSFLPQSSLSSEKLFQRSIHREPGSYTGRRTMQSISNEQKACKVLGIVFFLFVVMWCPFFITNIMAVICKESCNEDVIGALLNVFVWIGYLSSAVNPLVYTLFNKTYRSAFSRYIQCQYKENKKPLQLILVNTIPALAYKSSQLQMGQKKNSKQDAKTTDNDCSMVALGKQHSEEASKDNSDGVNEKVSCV
Sequence of UniProt P41143 (whole entry, looked up): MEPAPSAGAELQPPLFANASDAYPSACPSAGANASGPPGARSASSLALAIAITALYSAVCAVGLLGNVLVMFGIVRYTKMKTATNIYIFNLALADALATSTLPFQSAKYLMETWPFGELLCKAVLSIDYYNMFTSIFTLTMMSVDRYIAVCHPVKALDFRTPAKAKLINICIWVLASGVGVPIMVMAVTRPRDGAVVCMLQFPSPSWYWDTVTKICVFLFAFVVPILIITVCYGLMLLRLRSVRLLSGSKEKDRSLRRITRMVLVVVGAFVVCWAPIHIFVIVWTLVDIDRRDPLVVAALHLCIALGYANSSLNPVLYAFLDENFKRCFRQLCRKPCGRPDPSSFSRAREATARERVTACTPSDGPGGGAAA
Sequence of UniProt P08908 (whole entry, looked up): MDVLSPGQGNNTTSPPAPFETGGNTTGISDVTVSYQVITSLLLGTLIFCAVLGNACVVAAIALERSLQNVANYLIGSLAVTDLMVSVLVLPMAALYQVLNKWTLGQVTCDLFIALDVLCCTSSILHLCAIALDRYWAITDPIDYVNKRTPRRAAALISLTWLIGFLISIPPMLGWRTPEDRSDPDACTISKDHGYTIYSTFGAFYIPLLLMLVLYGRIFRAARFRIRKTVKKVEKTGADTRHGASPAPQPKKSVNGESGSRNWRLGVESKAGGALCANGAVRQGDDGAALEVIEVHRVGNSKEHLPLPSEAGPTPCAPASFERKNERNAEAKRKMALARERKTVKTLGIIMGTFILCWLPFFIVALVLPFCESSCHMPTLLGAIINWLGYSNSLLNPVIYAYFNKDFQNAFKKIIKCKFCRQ
Sequence of UniProt P21918 (whole entry, looked up): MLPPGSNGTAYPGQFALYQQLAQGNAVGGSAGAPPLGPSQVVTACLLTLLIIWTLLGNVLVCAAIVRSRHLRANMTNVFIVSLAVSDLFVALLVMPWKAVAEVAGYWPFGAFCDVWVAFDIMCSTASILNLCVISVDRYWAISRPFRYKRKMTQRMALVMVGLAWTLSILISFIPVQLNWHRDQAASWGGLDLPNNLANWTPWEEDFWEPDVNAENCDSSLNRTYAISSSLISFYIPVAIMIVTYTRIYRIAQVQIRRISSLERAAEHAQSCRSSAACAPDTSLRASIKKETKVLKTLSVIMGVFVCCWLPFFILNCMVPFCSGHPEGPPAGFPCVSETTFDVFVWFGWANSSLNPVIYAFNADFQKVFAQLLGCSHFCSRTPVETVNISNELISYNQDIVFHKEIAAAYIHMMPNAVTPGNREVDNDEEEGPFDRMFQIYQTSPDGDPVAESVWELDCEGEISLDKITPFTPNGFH
Sequence of UniProt P35372 (whole entry, looked up): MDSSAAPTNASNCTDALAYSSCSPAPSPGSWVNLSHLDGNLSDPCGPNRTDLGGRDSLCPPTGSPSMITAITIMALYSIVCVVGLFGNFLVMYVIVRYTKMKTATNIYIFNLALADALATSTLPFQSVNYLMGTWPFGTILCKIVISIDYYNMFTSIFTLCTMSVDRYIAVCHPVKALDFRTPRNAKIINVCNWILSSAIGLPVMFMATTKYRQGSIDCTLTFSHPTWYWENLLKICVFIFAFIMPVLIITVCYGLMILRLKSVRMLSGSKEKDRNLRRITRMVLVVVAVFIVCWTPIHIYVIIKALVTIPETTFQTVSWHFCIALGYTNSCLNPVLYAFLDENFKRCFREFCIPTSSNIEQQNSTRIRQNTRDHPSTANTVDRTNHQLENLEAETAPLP
Sequence of UniProt P11229 (whole entry, looked up): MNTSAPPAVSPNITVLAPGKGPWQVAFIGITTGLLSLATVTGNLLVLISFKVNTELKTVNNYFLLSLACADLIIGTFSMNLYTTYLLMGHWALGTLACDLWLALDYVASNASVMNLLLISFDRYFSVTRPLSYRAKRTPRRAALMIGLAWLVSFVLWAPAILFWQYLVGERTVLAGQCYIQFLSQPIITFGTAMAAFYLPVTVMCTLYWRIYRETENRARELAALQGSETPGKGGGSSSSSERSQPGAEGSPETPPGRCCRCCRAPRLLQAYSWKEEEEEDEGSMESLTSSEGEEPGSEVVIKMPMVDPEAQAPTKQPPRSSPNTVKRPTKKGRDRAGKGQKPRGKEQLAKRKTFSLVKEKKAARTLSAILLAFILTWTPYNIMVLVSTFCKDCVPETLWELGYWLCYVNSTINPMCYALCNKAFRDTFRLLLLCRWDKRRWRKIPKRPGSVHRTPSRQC
Sequence of UniProt P20309 (whole entry, looked up): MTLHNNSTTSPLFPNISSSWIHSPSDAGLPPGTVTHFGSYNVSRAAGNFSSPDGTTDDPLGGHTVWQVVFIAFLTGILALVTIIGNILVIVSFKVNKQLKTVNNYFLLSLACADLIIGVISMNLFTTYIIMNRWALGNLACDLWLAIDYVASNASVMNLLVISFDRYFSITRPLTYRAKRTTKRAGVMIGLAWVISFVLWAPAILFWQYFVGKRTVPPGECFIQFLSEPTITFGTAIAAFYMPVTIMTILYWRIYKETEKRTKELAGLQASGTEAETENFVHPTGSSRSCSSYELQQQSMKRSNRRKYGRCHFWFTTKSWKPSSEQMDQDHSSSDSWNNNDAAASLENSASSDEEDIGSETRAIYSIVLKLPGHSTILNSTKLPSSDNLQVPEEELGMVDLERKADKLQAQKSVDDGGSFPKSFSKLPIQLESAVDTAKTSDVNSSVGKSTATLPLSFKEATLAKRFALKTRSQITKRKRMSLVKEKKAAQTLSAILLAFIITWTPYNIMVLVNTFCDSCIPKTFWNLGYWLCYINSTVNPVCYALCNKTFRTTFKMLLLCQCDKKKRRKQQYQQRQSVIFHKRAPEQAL

Series 1
Organism: Vesicular stomatitis virus
Read-out: pseudovirus infection
Technique: FDA-approved drug library screen
Concentration: concentration not given
Setting: VSV-G control pseudotype
Relative to: vehicle
Endpoint: GFP-positive cells
FC(F)(F)C(Cl)Br (stereo not shown): 119%
Nc1nc2[nH]cc(CCc3ccc(C(=O)N[C@@H](CCC(=O)O)C(=O)O)cc3)c2c(=O)[nH]1: 119%
C[C@@H]1[C@H](O)[C@@H](C)/C=C/C=C/CC/C=C/C=C/C=C/C=C/[C@H](O[C@H]2O[C@@H](C)[C@H](O)[C@@H](N)[C@H]2O)C[C@@H]2O[C@](O)(C[C@@H](O)[C@H](O)CC[C@@H](O)C[C@@H](O)C[C@@H](O)CC(=O)O[C@H]1C)C[C@H](O)[C@H]2C(=O)O: 100%
Cc1ccc(/C(=C\CN2CCCC2)c2ccccn2)cc1.Cl: 103%
Cc1cc(C2CCCCC2)n(O)c(=O)c1.NCCO: 56.3%
O=C([O-])c1cc(/N=N/c2ccc(O)c(C(=O)[O-])c2)ccc1O.[Na+].[Na+]: 89.1%
NC[C@H](O)c1ccc(O)c(O)c1.O.O=C(O)C(O)C(O)C(=O)O: 114%
C[C@@H]1C[C@H]2[C@@H]3CCC4=CC(=O)C=C[C@]4(C)[C@@]3(F)[C@@H](O)C[C@]2(C)[C@@]1(O)C(=O)CO: 125%

Series 2
Structure (SMILES): CN1C(=O)[C@@H](N2CCc3c(nn(Cc4ccccc4)c3Br)C2=O)COc2ccccc21
Read-out: cell-free assay
Concentration: 10 µM
Endpoint: inhibition
Delta-type opioid receptor (OPRD1, Homo sapiens, UniProt P41143): 30.1%
Muscarinic acetylcholine receptor M3 (CHRM3, Homo sapiens, UniProt P20309): 1.23%
Mu-type opioid receptor (OPRM1, Homo sapiens, UniProt P35372): 14.6%
5-hydroxytryptamine receptor 2A (HTR2A, Homo sapiens, UniProt P28223): 50.6%
D(1B) dopamine receptor (DRD5, Homo sapiens, UniProt P21918): 41.7%
Muscarinic acetylcholine receptor M1 (CHRM1, Homo sapiens, UniProt P11229): 21.6%
5-hydroxytryptamine receptor 1A (HTR1A, Homo sapiens, UniProt P08908): 16.9%
Kappa-type opioid receptor (OPRK1, Homo sapiens, UniProt P41145): 16.5%

Series 3
Target: chymotrypsin
Read-out: enzyme activity
Mode: inhibitor
Concentration: 10 µM
Setting: with DTT
Endpoint: inhibition
C[C@H]1COC2=C1C(=O)C(=O)c1c2ccc2c1CCCC2(C)C: -3.7%
CCN(CC)S(=O)(=O)c1cccc(-n2sc3ccccc3c2=O)c1: 9.1%
O=C(O)c1ccccc1-c1c2cc(Br)c(=O)cc-2oc2[c]([Hg][OH])c(O)c(Br)cc12: 10.5%
O=C1C(Cl)=C(Cl)C(=O)C(Cl)=C1Cl: 10.1%
COC(=O)CC[C@H](NC(=O)[C@H](CC(=O)OC)NC(=O)OCc1ccccc1)C(=O)N[C@H](C(=O)N[C@@H](CC(=O)OC)C(=O)CF)C(C)C: 11.2%

Single results of other studies
CC#CC(=O)N1CCC[C@H]1c1nc(-c2ccc(C(=O)Nc3ccccn3)cc2)c2c(N)nccn12 — inhibition (Dual specificity tyrosine-phosphorylation-regulated kinase 1B (DYRK1B, Homo sapiens, UniProt Q9Y463); cell-free assay, inhibitor; 1 µM): 3%
